Measurements collected from several papers.
Each numbered part is a random draw from the data of one study; scales do not carry over between parts.

Set 1 — technique: protein binding microarray; form: double-stranded DNA, one strand shown; sample: in vitro; tested at: not given; reference: not given; reading: higher = stronger binding
Target: Histone acetyltransferase KAT6A, winged helix 2, GST fusion (KAT6A, Homo sapiens, UniProt Q92794, residues 85-181)
Setting: 8-mer, flanks averaged, mean of 2 arrays, mostly near background
Target sequence (chain): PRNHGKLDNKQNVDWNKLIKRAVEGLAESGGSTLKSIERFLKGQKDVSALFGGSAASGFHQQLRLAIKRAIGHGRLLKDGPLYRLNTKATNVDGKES
Sequence	E-score
CATAAGTC	-0.0433
AGGCACTG	0.238
CGTTAGTA	0.112
GTATCCAC	0.0612

Set 2 — technique: universal PBM; form: double-stranded DNA, one strand shown; sample: in vitro; tested at: not given; reading: higher = stronger binding
Target: Sal-like protein 4, full length isoform B (SALL4, Homo sapiens, UniProt Q9UJQ4-2, residues 1-616)
Setting: 8-mer, flanks averaged, mean of replicates
Sequence	E-score
CCAGTTGC	-0.262
AACCTCAA	0.116
GTACGGGA	-0.0913

Further values, each from its own experiment
G3BP1 full length: Ras GTPase-activating protein-binding protein 1, full length (G3BP1, Homo sapiens, UniProt Q13283)
Sequence of UniProt Q13283 (whole entry, looked up): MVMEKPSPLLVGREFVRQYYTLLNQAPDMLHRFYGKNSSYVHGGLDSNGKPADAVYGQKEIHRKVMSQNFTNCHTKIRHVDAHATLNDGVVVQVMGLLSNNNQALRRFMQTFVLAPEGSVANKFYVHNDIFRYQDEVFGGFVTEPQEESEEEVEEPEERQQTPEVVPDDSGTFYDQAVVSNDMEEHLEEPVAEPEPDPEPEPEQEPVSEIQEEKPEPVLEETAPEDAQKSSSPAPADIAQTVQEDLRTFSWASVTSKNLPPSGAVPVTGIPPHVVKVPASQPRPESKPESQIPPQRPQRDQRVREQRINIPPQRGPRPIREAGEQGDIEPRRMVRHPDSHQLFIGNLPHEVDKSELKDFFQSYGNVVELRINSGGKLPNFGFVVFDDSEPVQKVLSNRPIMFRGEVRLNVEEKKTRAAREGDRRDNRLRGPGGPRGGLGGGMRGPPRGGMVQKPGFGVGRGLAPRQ
Molecule	target	assay	test system	conditions	how to read	quantity	result
GGGAGUUCUACAGUCCGACGAUCGCAGGAAGUAAAAACAAAUGGAAAUGCUUCGGAUAGUGGCAGGGGUGGGGCUUGCUAAGGAAAGGGUGGGAUGGGAGUGGGUAAAGAGUUUGGAAUUCUCGGGUGUCAAGG	Fragile X messenger ribonucleoprotein 1, C-terminal low-complexity region (Fmr1, Mus musculus, UniProt P35922)	RNA Bind-n-Seq	RNA, in vitro	200 nM, whole 134-nt RNA, ends assumed, together with: 150 mM KCl	reference: input library, higher = stronger binding	log2 enrichment	0.253
PhoQ, residues 284 288 289 292 302 303 ALAMYF	PhoP, residues 12 14 15 18 19 GQAIL (Escherichia coli, UniProt P23836)	Sort-seq, item: YFP reporter	E. coli	PhoQ-PhoP variant library, together with: 10 µM Mg2+	reference: high Mg2+ state, higher = stronger signaling	fold induction	1.93
GGGAGUUCUACAGUCCGACGAUCAAGUCCUGUGCUACACAUCGUAUGUACCGAAUCGGUUUUUUUGGUUUUUUUGGAGGAAAGUAUUAUGUUACGCCGUUCGGAUCUGCACUUUGGAAUUCUCGGGUGUCAAGG	Ras GTPase-activating protein-binding protein 1, C-terminal RGG region (G3BP1, Homo sapiens, UniProt Q13283)	RNA Bind-n-Seq	RNA, in vitro	1 µM, whole 134-nt RNA, ends assumed, together with: 150 mM KCl	reference: input library, higher = stronger binding	log2 enrichment	-1.88
GGGAGUUCUACAGUCCGACGAUCCCUGUGCUACACAUCGUAUGUACCGAAUCGGGGUUUGGGGUUUUUUUGGGGUUUUUGGGGAAAGUAUUAUGUUACGCCGUUCGGAUCUGCUGGAAUUCUCGGGUGUCAAGG (7-deaza-guanosine replaces G)	G3BP1 full length	RNA Bind-n-Seq	RNA, in vitro	200 nM, whole 134-nt RNA, ends assumed, together with: 150 mM LiCl	reference: input library, higher = stronger binding	log2 enrichment	0.564
GGGAGUUCUACAGUCCGACGAUCACCAUGCAGGUGGGCAUCUUUGGGAAGUGGGGCAAGGGGGGGAUAGGGAGGGGGGUAACACUUUGGGAAUAGGUGGUCCCAGGUCGUUUCUGGAAUUCUCGGGUGUCAAGG (7-deaza-guanosine replaces G)	G3BP1 full length	RNA Bind-n-Seq	RNA, in vitro	200 nM, whole 134-nt RNA, ends assumed, together with: 150 mM LiCl	reference: input library, higher = stronger binding	log2 enrichment	-0.00933

Some of these lines once more (further values, each from its own experiment):
Molecule	target	assay	test system	conditions	how to read	quantity	result
GGGAGUUCUACAGUCCGACGAUCAAGUCCUGUGCUACACAUCGUAUGUACCGAAUCGGUUUUUUUGGUUUUUUUGGAGGAAAGUAUUAUGUUACGCCGUUCGGAUCUGCACUUUGGAAUUCUCGGGUGUCAAGG	Ras GTPase-activating protein-binding protein 1, C-terminal RGG region (G3BP1, Homo sapiens, UniProt Q13283)	RNA Bind-n-Seq	RNA, in vitro	1 µM, whole 134-nt RNA, ends assumed, together with: 150 mM KCl	reference: input library, higher = stronger binding	log2 enrichment	-1.88
